Measured values pooled from the literature.
Numbered parts are unrelated; each lists some results of a single study. Changes are numbered by the printed parent chain.

Series 1
Target: CCND1, cyclin fold, Cln2 fusion (human)
Technique: yeast growth competition, sequencing
Medium: yeast
Notes: strong parent motif
Reference: not given
Direction: higher = stronger binding
Parent: INSM1 docking peptide (human); PKAIRKLHFEDEV; partner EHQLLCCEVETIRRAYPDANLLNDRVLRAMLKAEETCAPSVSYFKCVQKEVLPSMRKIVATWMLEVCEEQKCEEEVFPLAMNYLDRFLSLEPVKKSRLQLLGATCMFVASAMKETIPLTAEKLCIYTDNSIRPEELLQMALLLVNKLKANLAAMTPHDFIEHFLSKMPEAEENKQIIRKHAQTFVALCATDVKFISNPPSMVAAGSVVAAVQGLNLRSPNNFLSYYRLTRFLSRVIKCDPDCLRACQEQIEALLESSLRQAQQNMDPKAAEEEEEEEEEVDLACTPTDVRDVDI
`D11S`: “normalised enrichment score” 3.5.
`F9Y` — result for “normalised enrichment score”: 1.5.
For `E10H`, “normalised enrichment score” read 3.08.
`K6Q` — result for “normalised enrichment score”: 4.23.
Under “normalised enrichment score”, `I4D` is recorded as 0.0727.
Under “normalised enrichment score”, `D11T` is recorded as 3.06.
Under “normalised enrichment score”, `K2V` is recorded as 3.48.
Under “normalised enrichment score”, `H8R` is recorded as 3.69.
Under “normalised enrichment score”, `K2M` is recorded as 3.37.
Under “normalised enrichment score”, `K6E` is recorded as 3.32.
`K6W` — result for “normalised enrichment score”: 2.36.
`E12T`: “normalised enrichment score” 4.55.
Under “normalised enrichment score”, `E12Y` is recorded as 3.61.
For `F9E`, “normalised enrichment score” read 0.0383.
`E12G` — result for “normalised enrichment score”: 3.79.
`K6V`: “normalised enrichment score” 4.12.
For `E12R`, “normalised enrichment score” read 2.38.
For `E10L`, “normalised enrichment score” read 2.14.
`H8T` — result for “normalised enrichment score”: 6.26.
For `A3N`, “normalised enrichment score” read 0.106.
For `H8V`, “normalised enrichment score” read 5.97.
`R5Y`: “normalised enrichment score” 1.15.

Series 2
Target: Ras GTPase-activating protein-binding protein 1, full length (G3BP1, Homo sapiens, UniProt Q13283)
Sequence of UniProt Q13283 (whole entry, looked up): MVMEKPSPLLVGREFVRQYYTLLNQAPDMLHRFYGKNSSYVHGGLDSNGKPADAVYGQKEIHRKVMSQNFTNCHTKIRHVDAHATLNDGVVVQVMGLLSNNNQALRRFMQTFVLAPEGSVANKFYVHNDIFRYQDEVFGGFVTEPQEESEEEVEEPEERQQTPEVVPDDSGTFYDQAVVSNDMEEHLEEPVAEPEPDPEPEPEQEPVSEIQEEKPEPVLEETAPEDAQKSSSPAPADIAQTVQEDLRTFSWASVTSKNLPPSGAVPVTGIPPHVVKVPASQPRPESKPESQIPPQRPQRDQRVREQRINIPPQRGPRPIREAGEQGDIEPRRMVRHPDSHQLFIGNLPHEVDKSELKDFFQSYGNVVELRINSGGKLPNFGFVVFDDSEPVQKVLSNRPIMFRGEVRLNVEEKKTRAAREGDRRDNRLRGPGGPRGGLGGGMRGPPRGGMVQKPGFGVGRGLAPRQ
Technique: RNA Bind-n-Seq
Molecule type: RNA
Medium: in vitro
Tested at: 200 nM
Notes: whole 134-nt RNA, ends assumed
Together with: 150 mM KCl
Reference: input library
Direction: higher = stronger binding
`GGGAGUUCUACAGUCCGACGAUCCCUCAAGUCCUGUGCUACACAUCGUAUGUACCGAAUCGGCGGCGGGGCGGGGAAAGUAUUAUGUUACGCCGUUCGGAUCUGCACUUCCAGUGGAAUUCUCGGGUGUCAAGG` gave a log2 enrichment of 0.378.
`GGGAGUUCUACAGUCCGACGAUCGGACACAGCUUGGGCUAUGGCUUUGUGAACUACGUGACCGCGAAGGAUGCAGAGAGAGCGAUCAACACGCUGAACGGCUUGAGGCUCCAGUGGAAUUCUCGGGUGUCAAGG` gave a log2 enrichment of -1.78.
`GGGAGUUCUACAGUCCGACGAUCGUCCUGUGCUACACAUCGUAUGUACCGAAUCGGGCCCCCGGGGCCCCCGGCCCCCGGGGAAAGUAUUAUGUUACGCCGUUCGGAUCUGCAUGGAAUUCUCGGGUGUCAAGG` gave a log2 enrichment of -0.961.
For `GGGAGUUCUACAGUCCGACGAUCUGGUGUUCAUAUUGCUGAUGUGAGCCAUUUUAUUAGGCCAGGAAAUGCCUUGGAUCAAGAAUCAGCCAGAAGAGGAACAACUGUGUAUCUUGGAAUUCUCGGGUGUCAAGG`, the log2 enrichment was -0.349.
The log2 enrichment of `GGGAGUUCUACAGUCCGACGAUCCAAGUCCUGUGCUACACAUCGUAUGUACCGAAUCGGGAGGGAAAAAGGGUUUGGGAAAGUAUUAUGUUACGCCGUUCGGAUCUGCACUUCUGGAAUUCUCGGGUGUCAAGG` is reported as 0.653.
The log2 enrichment of `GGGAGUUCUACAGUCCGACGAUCCUCAAGUCCUGUGCUACACAUCGUAUGUACCGAAUCGGAGGAAAAAGGUUUGGAAAGUAUUAUGUUACGCCGUUCGGAUCUGCACUUCCAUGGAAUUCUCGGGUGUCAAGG` is reported as -0.654.
The log2 enrichment of `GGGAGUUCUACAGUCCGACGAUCCCUCAAGUCCUGUGCUACACAUCGUAUGUACCGAAUCGGGCGGGCGGGGCGGGAAAGUAUUAUGUUACGCCGUUCGGAUCUGCACUUCCAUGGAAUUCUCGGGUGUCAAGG` is reported as 1.56.
For `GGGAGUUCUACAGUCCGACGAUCCAAGUCCUGUGCUACACAUCGUAUGUACCGAAUCGGAAAAAAAGGUUUGGUUUGGAAAGUAUUAUGUUACGCCGUUCGGAUCUGCACUUCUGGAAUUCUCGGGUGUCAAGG`, the log2 enrichment was -1.13.
`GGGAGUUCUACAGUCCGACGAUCUAUCUUUAGAGGAGGAUCUGAUGGAUAUGGCAGUGGACGUGGAUUUGGGGAUGGCUAUAAUGGGUAUGGAGGAGGACCUGGAGGUGGCAAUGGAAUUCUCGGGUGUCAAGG` gave a log2 enrichment of 0.307.
`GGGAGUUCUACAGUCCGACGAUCCACAGACAACACGCACCCACACAGACACAGAGGGAACGGGUUGGGAUGGGGACAGGGUGCACAGCAGGGCGGGGUAGGACCCCAGCCCCUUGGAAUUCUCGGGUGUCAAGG` has a log2 enrichment of 1.97.

Series 3
Target: Sal-like protein 4, full length isoform A (SALL4, Homo sapiens, UniProt Q9UJQ4, residues 1-1053)
Sequence of UniProt Q9UJQ4 (whole entry, looked up): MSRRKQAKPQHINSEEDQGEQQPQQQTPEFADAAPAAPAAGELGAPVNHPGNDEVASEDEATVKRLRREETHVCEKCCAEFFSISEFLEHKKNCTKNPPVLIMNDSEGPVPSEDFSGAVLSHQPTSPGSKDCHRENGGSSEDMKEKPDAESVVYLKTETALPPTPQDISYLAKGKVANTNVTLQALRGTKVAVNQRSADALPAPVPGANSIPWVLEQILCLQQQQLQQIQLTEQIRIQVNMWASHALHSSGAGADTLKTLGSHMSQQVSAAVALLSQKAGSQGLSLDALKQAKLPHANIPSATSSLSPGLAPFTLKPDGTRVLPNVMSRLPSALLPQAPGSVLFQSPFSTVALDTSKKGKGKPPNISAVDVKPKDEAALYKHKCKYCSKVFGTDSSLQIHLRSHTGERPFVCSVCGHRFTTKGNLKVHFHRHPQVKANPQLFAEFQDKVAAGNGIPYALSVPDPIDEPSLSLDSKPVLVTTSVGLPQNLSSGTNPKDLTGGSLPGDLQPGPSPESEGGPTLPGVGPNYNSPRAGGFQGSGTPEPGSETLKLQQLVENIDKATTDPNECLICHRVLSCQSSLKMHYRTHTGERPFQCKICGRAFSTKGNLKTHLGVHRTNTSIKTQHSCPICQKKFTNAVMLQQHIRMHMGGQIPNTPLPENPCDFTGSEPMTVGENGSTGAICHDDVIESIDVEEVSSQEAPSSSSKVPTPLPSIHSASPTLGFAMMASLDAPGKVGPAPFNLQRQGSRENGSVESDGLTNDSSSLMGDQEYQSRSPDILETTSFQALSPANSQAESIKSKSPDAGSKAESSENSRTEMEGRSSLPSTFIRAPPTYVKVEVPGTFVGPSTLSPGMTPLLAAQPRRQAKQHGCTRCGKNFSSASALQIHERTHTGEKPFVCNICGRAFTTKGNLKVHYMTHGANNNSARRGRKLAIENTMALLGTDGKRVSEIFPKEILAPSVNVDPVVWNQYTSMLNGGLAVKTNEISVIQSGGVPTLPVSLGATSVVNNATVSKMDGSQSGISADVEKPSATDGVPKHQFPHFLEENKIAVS
Technique: universal PBM
Molecule type: double-stranded DNA, one strand shown
Medium: in vitro
Tested at: 600 nM
Notes: 8-mer, flanks averaged, mean of replicates
Direction: higher = stronger binding
`ATGCTGGA` has an E-score of -0.106.
`CATGATAG` gave an E-score of 0.212.
With `CGTAATAC` the E-score was 0.194.
With `AACCATAT` the E-score was 0.303.
For `CAGACTAC`, the E-score was -0.0758.
For `CCACGCGC`, the E-score was -0.279.
`AATAGTAA` gave an E-score of 0.32.
For `AACGTGGT`, the E-score was -0.0602.
With `ACGTCACT` the E-score was -0.093.
The E-score of `ATGTGTTG` is reported as 0.258.
`AGTTAAGC` has an E-score of 0.0683.
For `AAGGAAGA`, the E-score was 0.0279.
`ATTTCTTC` has an E-score of 0.283.
`GTTCTCAA` gave an E-score of 0.121.
`GTATTTGA` has an E-score of 0.255.
For `AGGGCTGA`, the E-score was -0.175.
With `AGCGAGCG` the E-score was -0.137.
For `ACGTGTGC`, the E-score was -0.206.

Series 4
Target: RING finger protein unkempt homolog, zinc fingers 1-6, SBP tag (UNK, Homo sapiens, UniProt Q9C0B0, residues 30-357)
Sequence of UniProt Q9C0B0 (30-357, looked up): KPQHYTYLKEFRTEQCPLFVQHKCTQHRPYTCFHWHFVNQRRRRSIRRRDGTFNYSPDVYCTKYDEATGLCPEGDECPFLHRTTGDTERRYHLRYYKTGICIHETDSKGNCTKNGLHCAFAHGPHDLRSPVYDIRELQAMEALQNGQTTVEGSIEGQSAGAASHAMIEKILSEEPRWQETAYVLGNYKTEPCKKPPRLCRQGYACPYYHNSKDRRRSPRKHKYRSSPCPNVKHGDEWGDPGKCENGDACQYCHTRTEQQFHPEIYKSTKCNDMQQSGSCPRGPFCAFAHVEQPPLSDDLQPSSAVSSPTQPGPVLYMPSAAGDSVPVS
Technique: RNA Bind-n-Seq
Molecule type: RNA
Medium: in vitro
Tested at: 100 nM
Notes: RNA with constant flanks, ends assumed
Reference: input RNA pool
Direction: higher = stronger binding
`GGGAGUUCUACAGUCCGACGAUCUCAUUGUACUGCAAAAAUCAUCCUCGUUUUAAAUCCGCCACAGUGAUAACCCGUCUGCACCCGCCGAAUCAUUUACCUUUUAAAUUAUCUGCUUUGUCUGAUACCUGAAACACAUCAAAACAACAGAGGAUUGAGCAUCA` has a bound/input enrichment of 0.68 ratio.
`GGGAGUUCUACAGUCCGACGAUCUAUUUUCUUAUUUCCGGUAUCAUUGCCCAGUGCCUAAGAUCUUUUAUGUUCAGCUCACUGCCGGAAAUAAUGAAUUUUUUGGGGAAGGAAAGACUCGACAAGCUGCCCGACACAAUGCUGCAACAGAGGAUUGAGCAUCA` has a bound/input enrichment of 0.425 ratio.
The bound/input enrichment of `GGGAGUUCUACAGUCCGACGAUCGACCCCCACUCCCUGUGAGAGGGAAUGGGGGAAGCCUGAUGACCCUCAGCUGUUCCAAUCCCGUAUUUUUUUUCUUUUUUAAAAUUACUGUAUUUAUUAUGACGAUGGUGACUCCCCAGUCAACAGAGGAUUGAGCAUCA` is reported as 0.955 ratio.
For `GGGAGUUCUACAGUCCGACGAUCUCCAGUCUUACACUUAUGGUUGGCCUCAAAUCUAUUGCAUUUAUGAUAAUGUAUUAUAUCCCGUUGAGUUUAAUAUUUUUUUAUCCGCCUGUAAAUAAAGAUGGCAUCUUCUACAUUAAACAACAGAGGAUUGAGCAUCA`, the bound/input enrichment was 0.332 ratio.

Series 5
Target: Interferon regulatory factor 5, full length, phosphomimetic (IRF5, Homo sapiens, UniProt Q13568-2, residues 1-514, K96S/S451D/S453D/S456D/S462D)
Technique: protein-binding microarray
Molecule type: double-stranded DNA, one strand shown
Medium: in vitro
Tested at: 250 nM
Notes: 60-bp whole probe
Together with: salmon DNA 0.4 mg/ml
Reference: random background probes
Direction: higher = stronger binding
All sequences stand within: GCCTAGCAC … GTCTTGATTCGCTTGACGCTGCTG
With `GACGGTATCGGTTTCGGGCCGTGCTAG` the log fluorescence was 8.58 z-score.
With `TTAGGTTTCGTTCTCGGTTAGTGCTAG` the log fluorescence was 7.67 z-score.
The log fluorescence of `GACGGAATCCTACTGCTGACGTGCTAG` is reported as -0.362 z-score.
With `GACGAGCTGAGTATCGAGACGTGCTAG` the log fluorescence was 1.73 z-score.
With `AATGTTTTGTTTTTCATTATGTGCTAG` the log fluorescence was 2.62 z-score.
For `TTAGGACTGGGGTATAGGTTAGTGCTA`, the log fluorescence was 0.00947 z-score.
The log fluorescence of `GACGGACTGGGACTGGGGACGTGCTAG` is reported as -0.534 z-score.
For `TCATTTTTTTTTTTTTAACTGTGCTAG`, the log fluorescence was 1.06 z-score.
With `TTAGGTTTCGGTATCCGTTAGTGCTAG` the log fluorescence was 10.5 z-score.
The log fluorescence of `TTAGAAATCAGTCTCGATTAGTGCTAG` is reported as 1.37 z-score.
`GACGATTTCGGGTATCCAGACGTGCTA` gave a log fluorescence of 4.06 z-score.
For `TTAGGTTTCCTTTCCCTTGAGTGCTAG`, the log fluorescence was 1.9 z-score.
For `GACGGTATCGCCACTGGGGACGTGCTA`, the log fluorescence was 0.66 z-score.
`TCAACTTGTCTTTTCACACTGTGCTAG` has a log fluorescence of 0.678 z-score.
For `AACGATATCGGGACTGGAGACGTGCTA`, the log fluorescence was 1.07 z-score.
With `GCCGGTATCGACTTTCGGGACGTGCTA` the log fluorescence was 7.26 z-score.
The log fluorescence of `GACGGACTTCTTTTCCTGACGTGCTAG` is reported as -0.0533 z-score.
For `TTAGGACTGTGGTATCGGTTAGTGCTA`, the log fluorescence was 4.48 z-score.
`GACGCTTTCCTACTGCTGACGTGCTAG` has a log fluorescence of 0.429 z-score.
The log fluorescence of `GCCGGTTTCGGGTTTCGGGACGTGCTA` is reported as 8.59 z-score.
`TTAGAACTGGGTTTTCGATTAGTGCTA` has a log fluorescence of 3.47 z-score.

Some of these lines once more (series 3):
`CATGATAG` gave an E-score of 0.212.
With `CGTAATAC` the E-score was 0.194.
With `AACCATAT` the E-score was 0.303.
For `CAGACTAC`, the E-score was -0.0758.
For `CCACGCGC`, the E-score was -0.279.
`AATAGTAA` gave an E-score of 0.32.
